Experimental data gathered from unrelated publications.
Each numbered part is a random draw from the data of one study; scales do not carry over between parts.
UniProt Q8IW41, sequence (whole entry, looked up): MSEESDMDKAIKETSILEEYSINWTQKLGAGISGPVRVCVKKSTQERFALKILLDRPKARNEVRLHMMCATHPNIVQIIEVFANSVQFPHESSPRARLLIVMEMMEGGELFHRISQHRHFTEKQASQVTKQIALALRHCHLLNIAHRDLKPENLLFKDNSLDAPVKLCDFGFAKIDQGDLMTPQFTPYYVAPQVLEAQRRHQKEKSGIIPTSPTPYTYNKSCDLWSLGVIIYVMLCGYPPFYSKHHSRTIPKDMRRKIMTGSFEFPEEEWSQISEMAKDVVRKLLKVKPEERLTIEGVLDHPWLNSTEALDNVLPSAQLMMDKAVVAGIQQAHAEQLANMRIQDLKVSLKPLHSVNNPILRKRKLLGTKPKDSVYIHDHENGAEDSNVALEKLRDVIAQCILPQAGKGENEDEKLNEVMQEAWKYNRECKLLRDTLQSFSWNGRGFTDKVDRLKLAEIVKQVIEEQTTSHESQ
UniProt Q9UL54, sequence (whole entry, looked up): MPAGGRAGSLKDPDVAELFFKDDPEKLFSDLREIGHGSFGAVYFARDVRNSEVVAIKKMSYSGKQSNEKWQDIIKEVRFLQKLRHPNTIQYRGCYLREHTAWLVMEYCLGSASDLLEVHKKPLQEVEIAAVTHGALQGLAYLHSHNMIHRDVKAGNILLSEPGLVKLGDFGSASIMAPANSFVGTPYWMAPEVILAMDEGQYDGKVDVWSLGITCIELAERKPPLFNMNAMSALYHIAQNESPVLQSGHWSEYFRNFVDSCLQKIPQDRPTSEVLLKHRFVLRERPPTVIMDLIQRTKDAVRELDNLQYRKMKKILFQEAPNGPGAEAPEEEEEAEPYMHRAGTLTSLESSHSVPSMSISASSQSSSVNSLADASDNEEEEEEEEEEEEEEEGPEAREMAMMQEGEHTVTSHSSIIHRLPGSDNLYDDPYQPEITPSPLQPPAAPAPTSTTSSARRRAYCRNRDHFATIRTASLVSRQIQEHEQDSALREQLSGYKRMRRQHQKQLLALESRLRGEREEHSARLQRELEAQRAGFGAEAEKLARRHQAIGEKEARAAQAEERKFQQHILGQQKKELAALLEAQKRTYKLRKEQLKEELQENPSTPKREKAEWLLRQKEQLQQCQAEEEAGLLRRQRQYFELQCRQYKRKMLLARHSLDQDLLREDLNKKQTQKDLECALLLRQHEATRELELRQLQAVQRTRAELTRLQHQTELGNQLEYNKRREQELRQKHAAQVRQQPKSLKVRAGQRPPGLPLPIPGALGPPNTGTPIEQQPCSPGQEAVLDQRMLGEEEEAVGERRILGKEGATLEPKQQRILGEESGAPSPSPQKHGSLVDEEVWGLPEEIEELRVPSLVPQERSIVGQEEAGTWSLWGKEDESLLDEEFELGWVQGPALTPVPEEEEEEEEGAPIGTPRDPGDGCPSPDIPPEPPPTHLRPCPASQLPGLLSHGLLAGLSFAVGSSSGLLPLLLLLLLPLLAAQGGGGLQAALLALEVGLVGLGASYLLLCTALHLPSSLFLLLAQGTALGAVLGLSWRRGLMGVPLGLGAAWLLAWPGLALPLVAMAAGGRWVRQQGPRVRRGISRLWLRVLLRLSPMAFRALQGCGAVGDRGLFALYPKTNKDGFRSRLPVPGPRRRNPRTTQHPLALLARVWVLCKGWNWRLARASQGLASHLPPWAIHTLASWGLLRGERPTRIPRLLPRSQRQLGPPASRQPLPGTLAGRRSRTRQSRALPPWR
UniProt P42685, sequence (whole entry, looked up): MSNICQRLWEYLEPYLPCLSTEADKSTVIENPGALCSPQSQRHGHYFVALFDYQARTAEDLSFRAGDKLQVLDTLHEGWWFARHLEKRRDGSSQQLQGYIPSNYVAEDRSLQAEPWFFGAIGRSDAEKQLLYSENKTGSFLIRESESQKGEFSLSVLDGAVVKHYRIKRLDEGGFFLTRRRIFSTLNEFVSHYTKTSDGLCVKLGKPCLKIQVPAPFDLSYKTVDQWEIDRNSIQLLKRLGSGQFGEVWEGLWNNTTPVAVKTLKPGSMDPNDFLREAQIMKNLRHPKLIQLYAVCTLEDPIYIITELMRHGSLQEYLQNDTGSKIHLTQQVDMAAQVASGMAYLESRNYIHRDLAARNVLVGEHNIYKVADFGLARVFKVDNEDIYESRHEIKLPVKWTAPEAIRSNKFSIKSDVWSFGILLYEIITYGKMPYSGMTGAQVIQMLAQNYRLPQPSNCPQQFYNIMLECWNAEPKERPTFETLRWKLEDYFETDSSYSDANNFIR
UniProt Q8WU08, sequence (whole entry, looked up): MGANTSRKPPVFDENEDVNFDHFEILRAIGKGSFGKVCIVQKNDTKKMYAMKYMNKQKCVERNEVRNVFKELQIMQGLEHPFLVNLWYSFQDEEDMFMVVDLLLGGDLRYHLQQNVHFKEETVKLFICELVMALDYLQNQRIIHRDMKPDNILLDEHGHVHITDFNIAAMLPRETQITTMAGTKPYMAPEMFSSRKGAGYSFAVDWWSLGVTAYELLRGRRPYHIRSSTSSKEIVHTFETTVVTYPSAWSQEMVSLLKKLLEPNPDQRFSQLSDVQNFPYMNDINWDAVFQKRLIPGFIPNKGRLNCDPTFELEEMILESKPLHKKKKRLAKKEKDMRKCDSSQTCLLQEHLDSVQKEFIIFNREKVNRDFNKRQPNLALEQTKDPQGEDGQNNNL
UniProt Q9UQ88, sequence (whole entry, looked up): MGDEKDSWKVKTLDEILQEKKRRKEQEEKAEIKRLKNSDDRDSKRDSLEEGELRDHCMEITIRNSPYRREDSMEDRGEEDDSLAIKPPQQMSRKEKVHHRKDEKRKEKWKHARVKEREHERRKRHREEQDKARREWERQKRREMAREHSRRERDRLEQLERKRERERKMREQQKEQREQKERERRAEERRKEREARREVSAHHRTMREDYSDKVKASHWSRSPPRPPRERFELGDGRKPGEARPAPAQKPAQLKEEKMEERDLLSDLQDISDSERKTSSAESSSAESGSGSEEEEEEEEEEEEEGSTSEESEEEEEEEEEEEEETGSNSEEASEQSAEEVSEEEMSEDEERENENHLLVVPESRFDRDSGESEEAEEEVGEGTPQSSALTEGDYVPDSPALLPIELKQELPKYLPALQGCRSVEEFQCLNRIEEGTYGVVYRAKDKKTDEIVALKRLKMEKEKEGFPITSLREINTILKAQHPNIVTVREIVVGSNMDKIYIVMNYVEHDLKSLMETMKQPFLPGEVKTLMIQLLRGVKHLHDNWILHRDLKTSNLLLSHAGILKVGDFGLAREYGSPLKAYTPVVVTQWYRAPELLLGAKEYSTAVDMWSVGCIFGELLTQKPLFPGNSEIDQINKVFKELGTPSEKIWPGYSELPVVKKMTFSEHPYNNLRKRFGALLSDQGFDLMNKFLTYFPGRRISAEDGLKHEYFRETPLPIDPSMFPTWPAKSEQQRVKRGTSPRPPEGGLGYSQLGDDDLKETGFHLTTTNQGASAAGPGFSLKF
UniProt P57078, sequence (whole entry, looked up): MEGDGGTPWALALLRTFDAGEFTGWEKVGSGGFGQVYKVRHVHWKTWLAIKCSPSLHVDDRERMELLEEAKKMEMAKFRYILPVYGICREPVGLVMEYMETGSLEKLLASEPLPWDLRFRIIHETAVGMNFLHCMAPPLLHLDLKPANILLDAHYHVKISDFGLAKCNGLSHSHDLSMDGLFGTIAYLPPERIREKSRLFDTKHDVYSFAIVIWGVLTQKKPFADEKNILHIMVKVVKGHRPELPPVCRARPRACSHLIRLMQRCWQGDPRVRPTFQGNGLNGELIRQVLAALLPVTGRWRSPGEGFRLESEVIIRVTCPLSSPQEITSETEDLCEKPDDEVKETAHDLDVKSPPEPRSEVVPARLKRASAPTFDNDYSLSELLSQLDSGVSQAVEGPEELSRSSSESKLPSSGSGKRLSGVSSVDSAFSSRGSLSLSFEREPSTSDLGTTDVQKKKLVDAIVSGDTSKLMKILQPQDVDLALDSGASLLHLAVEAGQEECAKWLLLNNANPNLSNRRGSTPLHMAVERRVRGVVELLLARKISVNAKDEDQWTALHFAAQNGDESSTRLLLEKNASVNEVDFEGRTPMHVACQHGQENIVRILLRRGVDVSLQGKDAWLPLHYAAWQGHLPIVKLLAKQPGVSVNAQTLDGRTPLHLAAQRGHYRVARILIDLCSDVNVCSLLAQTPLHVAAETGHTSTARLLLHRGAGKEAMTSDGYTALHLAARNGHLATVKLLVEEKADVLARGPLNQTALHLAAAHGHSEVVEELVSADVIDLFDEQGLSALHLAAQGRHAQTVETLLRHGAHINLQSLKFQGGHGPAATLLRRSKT
UniProt Q00535, sequence (whole entry, looked up): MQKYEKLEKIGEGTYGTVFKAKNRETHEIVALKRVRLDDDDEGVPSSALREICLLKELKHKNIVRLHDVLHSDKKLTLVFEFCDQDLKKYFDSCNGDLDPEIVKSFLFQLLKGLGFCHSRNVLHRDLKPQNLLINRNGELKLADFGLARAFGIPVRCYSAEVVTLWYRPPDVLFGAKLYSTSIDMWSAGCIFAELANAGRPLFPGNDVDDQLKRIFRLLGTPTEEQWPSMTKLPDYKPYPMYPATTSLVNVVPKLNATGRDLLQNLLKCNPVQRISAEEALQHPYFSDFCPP

Block 1
SMILES: Cc1sc(C(=O)NC2COC2)cc1-n1cc(NC(=O)Nc2c(F)cccc2Cl)cn1
Observed: enzyme activity
Concentration: 10 µM
Quantity: remaining activity
target = MAP4K2 (Homo sapiens, UniProt Q12851); scale = reference: untreated control; value = 88.5%
target = Cyclin-dependent kinase 5, with p35 (CDK5, Homo sapiens, UniProt Q00535); scale = reference: untreated control; value = 102%
target = TYRO3 (Homo sapiens, UniProt Q06418); scale = reference: untreated control; value = 96.8%
target = FRK (Homo sapiens, UniProt P42685); scale = reference: untreated control; value = 86.3%
target = TAOK2 (Homo sapiens, UniProt Q9UL54); scale = reference: untreated control; value = 88.6%
target = PRKCI (Homo sapiens, UniProt P41743); scale = reference: untreated control; value = 90.5%
target = SNRK (Homo sapiens, UniProt Q9NRH2); scale = reference: untreated control; value = 101%
target = ULK2 (Homo sapiens, UniProt Q8IYT8); scale = reference: untreated control; value = 69.8%
target = LCK (Homo sapiens, UniProt P06239); scale = reference: untreated control; value = 44.3%
target = DYRK4 (Homo sapiens, UniProt Q9NR20); test = inhibitor; value = 93.7%
target = PRKD1 (Homo sapiens, UniProt Q15139); scale = reference: untreated control; value = 93.2%

Block 2
Target: Serine/threonine-protein kinase 24 (STK24, Homo sapiens, UniProt Q9Y6E0)
UniProt Q9Y6E0, sequence (whole entry, looked up): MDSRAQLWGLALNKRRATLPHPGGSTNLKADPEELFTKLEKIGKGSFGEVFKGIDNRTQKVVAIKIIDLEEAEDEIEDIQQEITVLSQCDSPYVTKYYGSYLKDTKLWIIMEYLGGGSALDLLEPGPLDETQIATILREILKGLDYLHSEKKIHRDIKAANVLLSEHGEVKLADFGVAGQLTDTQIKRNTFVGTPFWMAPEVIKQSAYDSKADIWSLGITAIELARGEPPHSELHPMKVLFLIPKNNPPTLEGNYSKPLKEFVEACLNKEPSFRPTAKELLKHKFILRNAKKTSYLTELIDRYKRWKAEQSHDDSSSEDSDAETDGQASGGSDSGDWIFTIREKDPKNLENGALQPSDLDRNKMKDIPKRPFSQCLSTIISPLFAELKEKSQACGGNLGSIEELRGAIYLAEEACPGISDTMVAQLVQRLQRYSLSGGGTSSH
Observed: enzyme activity
Action: inhibitor
Concentration: 0.5 µM
Reference: control
Quantity: remaining activity
Structure (SMILES) = O=C1Nc2ccccc2/C1=C\c1c(Cl)[nH]c2ccccc12; value = 81.5%
Structure (SMILES) = O=C(c1cc2cc(O)ccc2[nH]1)c1cc2cc(O)ccc2[nH]1; value = 70.4%
Structure (SMILES) = N#Cc1cnc2cnc(NCc3cccnc3)cc2c1Nc1ccc(F)c(Cl)c1; value = 95.6%
Structure (SMILES) = Cc1ccc(S(=O)(=O)/C=C/C#N)cc1; value = 89.3%
Structure (SMILES) = Cc1cc(Nc2cc(N3CCN(C)CC3)nc(Sc3ccc(NC(=O)C4CC4)cc3)n2)[nH]n1; value = 96.7%
Structure (SMILES) = CN(C)S(=O)(=O)c1ccc2c(c1)/C(=C/c1cc3c([nH]1)CCCC3)C(=O)N2; value = 47.7%
Structure (SMILES) = O=C1NC(=O)c2c1c1c3ccccc3[nH]c1c1[nH]c3cc(Br)ccc3c21; value = 80.1%
Structure (SMILES) = O=Nc1c(-c2c(O)[nH]c3cc(Br)ccc23)[nH]c2ccccc12; value = 90.9%
Structure (SMILES) = CCCNC(=O)Nc1ccc(Oc2ncnc3cc(OC)c(OC)cc23)cc1Cl; value = 91.7%
Structure (SMILES) = COc1cccc(-c2cc(=O)c3ccccc3o2)c1N; value = 108%
Structure (SMILES) = O=C1Cc2c([nH]c3ccc(Br)cc23)-c2ccccc2N1; value = 84.8%
Structure (SMILES) = O=c1cc(N2CCOCC2)oc2c(-c3ccccc3)cccc12; value = 97.1%
Structure (SMILES) = c1ccc(-c2n[nH]c3c2oc2ccccc23)cc1; value = 75.3%
Structure (SMILES) = O=C1NC(=O)c2c1c1c3ccccc3[nH]c1n1cncc21; value = 48.4%
Structure (SMILES) = O=C1Nc2ccc(Br)cc2/C1=C/c1cc2c([nH]1)CCCC2; value = 94.2%
Structure (SMILES) = CN1CCN(c2ccc3nc(-c4c(N)c5c(F)cccc5[nH]c4=O)[nH]c3c2)CC1; value = 44.5%
Structure (SMILES) = COc1ccc(COc2ccc(Cc3cnc(N)nc3N)cc2OC)cc1; value = 93.5%
Structure (SMILES) = c1ccc2c(-c3ccncc3)c[nH]c2c1; value = 93.5%
Structure (SMILES) = CCCCc1c(-c2ccc(OC)cc2)[nH]c2nccnc12; value = 87.3%
Structure (SMILES) = COc1ccc2c(c1)c(C1=C(c3c[nH]c4ccccc34)C(=O)NC1=O)cn2CCCN(C)C; value = 36.6%

Block 3
SMILES: Cc1nccc(COC(=O)N2C[C@@H]3[C@@H](CNC(=O)c4ccc5[nH]nnc5c4)[C@@H]3C2)n1
Method: competition with immobilised ligand
Concentration: 1 µM
Quantity: remaining binding
target = VRK2 (Homo sapiens, UniProt Q86Y07); test = cell-free assay; value = 29%
target = STK32A (Homo sapiens, UniProt Q8WU08); test = cell-free assay; value = 94%
target = MAPKAPK5 (Homo sapiens, UniProt Q8IW41); test = cell-free assay; value = 97%
target = KDR (Homo sapiens, UniProt P35968); test = cell-free assay; value = 80%
target = DDR2 (Homo sapiens, UniProt Q16832); test = cell-free assay; value = 77%
target = CDK15 (Homo sapiens, UniProt Q96Q40); test = cell-free assay; value = 100%
target = DSTYK (Homo sapiens, UniProt Q6XUX3); test = cell-free assay; value = 69%
target = WNK4 (Homo sapiens, UniProt Q96J92); test = cell-free assay; value = 100%
target = STK39 (Homo sapiens, UniProt Q9UEW8); test = cell-free assay; value = 79%
target = RIPK4 (Homo sapiens, UniProt P57078); test = cell-free assay; value = 98%
target = FLT3 (Homo sapiens, UniProt P36888, D835V); test = cell-free assay; value = 79%
target = INSRR (Homo sapiens, UniProt P14616); test = cell-free assay; value = 100%
target = CDK11A (Homo sapiens, UniProt Q9UQ88); test = binding; value = 100%
target = Tyrosine-protein kinase JAK3, JH1 (JAK3, Homo sapiens, UniProt P52333); test = cell-free assay; value = 96%
target = CDK2 (Homo sapiens, UniProt P24941); test = cell-free assay; value = 77%
target = ALK (Homo sapiens, UniProt Q9UM73, C1156Y); test = cell-free assay; value = 76%
target = PRKX (Homo sapiens, UniProt P51817); test = cell-free assay; value = 100%
target = CAMKK2 (Homo sapiens, UniProt Q96RR4); test = cell-free assay; value = 100%
target = NEK6 (Homo sapiens, UniProt Q9HC98); test = cell-free assay; value = 100%
target = CAMK2B (Homo sapiens, UniProt Q13554); test = cell-free assay; value = 90%
target = ACVR2A (Homo sapiens, UniProt P27037); test = cell-free assay; value = 69%
target = Tyrosine-protein kinase ABL1, phosphorylated (ABL1, Homo sapiens, UniProt P00519, Y253F); test = cell-free assay; value = 93%
target = LTK (Homo sapiens, UniProt P29376); test = cell-free assay; value = 93%
target = MAP2K6 (Homo sapiens, UniProt P52564); test = cell-free assay; value = 100%
target = KIT (Homo sapiens, UniProt P10721, D816H); test = cell-free assay; value = 99%

Block 4
SMILES: COc1cc(C(=O)N2CCC(N3CCN(C)CC3)CC2)ccc1Nc1ncc2c(n1)N(C)c1ccccc1C(=O)N2C
Quantity: inhibition
target or system = NEK7 human; test = KiNativ profiling; system = human PBMC; setting = 1 µM, activation loop site, together with: ATP acyl phosphate probe; value = -8.1%
target or system = ITPK1; setting = 0.1 µM; value = 4.5%
target or system = ABL and ARG (mouse); test = probe labelling, KiNativ, measured: Lys1 site peptide; system = brain tissue lysate (mouse); setting = 0.1 µM, together with: ATP acyl-phosphate probe; value = 7.9%
target or system = AKT1 and AKT3 mouse; test = KiNativ profiling; system = mouse brain lysate; setting = 1 µM, LYS1 site, together with: ADP acyl phosphate probe; value = 5.9%
target or system = PIP4K2C (mouse); test = probe labelling, KiNativ, measured: VKELPTLkDMDFLNK peptide, ATP site; system = brain tissue lysate (mouse); setting = 0.1 µM, together with: ATP acyl-phosphate probe; value = -2.5%
target or system = human PBMC; test = probe labeling, inhibitor, KiNativ profiling, measured: DVkPSNILVNSR; system = cell lysate; setting = concentration not given, LYS2 site, together with: ADP acyl-phosphate probe; value = -24.1%
target or system = PIP4K2C (mouse); test = probe labelling, KiNativ, measured: ATP site peptide; system = brain tissue lysate (mouse); setting = 0.1 µM, together with: ATP acyl-phosphate probe; value = 7.5%
target or system = MAP2K1 and MAP2K2 (mouse); test = probe labelling, KiNativ, measured: DVkPSNILVNSR peptide, LYS2 site; system = brain tissue lysate (mouse); setting = 0.1 µM, together with: ATP acyl-phosphate probe; value = -8.4%
target or system = MST4 and YSK1 human; test = KiNativ profiling; system = human PBMC; setting = concentration not given, LYS2 site, together with: ADP acyl phosphate probe; value = 9.2%
target or system = mouse ROCK1; test = probe labelling, KiNativ ATP probe; system = mouse brain lysate; setting = 0.1 µM; value = -4.1%
target or system = p70S6K/p70S6Kb (mouse); test = probe labelling, inhibitor, KiNativ ActivX ATP probe; system = mouse brain lysate; setting = 0.1 µM; value = -10.7%
target or system = LIMK1 (mouse); test = probe labelling, KiNativ ADP probe; system = mouse brain lysate; setting = 1 µM, LYS1 labelled site; value = 5.4%
target or system = PIK3CB human; test = KiNativ profiling; system = human PBMC; setting = 1 µM, ATP site, together with: ATP acyl phosphate probe; value = -1.8%
target or system = mouse mTOR; test = probe labelling, KiNativ ATP probe; system = mouse brain lysate; setting = 1 µM, ATP site; value = -4%

Repeated from above (block 4):
target or system = ABL and ARG (mouse); test = probe labelling, KiNativ, measured: Lys1 site peptide; system = brain tissue lysate (mouse); setting = 0.1 µM, together with: ATP acyl-phosphate probe; value = 7.9%
target or system = AKT1 and AKT3 mouse; test = KiNativ profiling; system = mouse brain lysate; setting = 1 µM, LYS1 site, together with: ADP acyl phosphate probe; value = 5.9%
target or system = PIP4K2C (mouse); test = probe labelling, KiNativ, measured: VKELPTLkDMDFLNK peptide, ATP site; system = brain tissue lysate (mouse); setting = 0.1 µM, together with: ATP acyl-phosphate probe; value = -2.5%
target or system = human PBMC; test = probe labeling, inhibitor, KiNativ profiling, measured: DVkPSNILVNSR; system = cell lysate; setting = concentration not given, LYS2 site, together with: ADP acyl-phosphate probe; value = -24.1%
target or system = PIP4K2C (mouse); test = probe labelling, KiNativ, measured: ATP site peptide; system = brain tissue lysate (mouse); setting = 0.1 µM, together with: ATP acyl-phosphate probe; value = 7.5%
